Measured values of several laboratories.
Protocols differ between the studies behind these lines.
Target: Serine/threonine-protein kinase MARK1 (MARK1, Homo sapiens, UniProt Q9P0L2)

test	conditions	how to read	endpoint	value	SMILES
inhibitor	1 µM	reference: control	remaining activity	98%	COc1cc(Nc2nc(C)cc(-c3cnn4nc(OC)ccc34)n2)cc(C(F)(F)F)c1
enzyme activity	1 µM	reference: DMSO control	remaining activity	95.8%	Nc1ncc(-c2cc(-c3cnn(CC(F)(F)F)c3)ncc2F)nc1C(=O)NC1CNCC(F)C1 (stereo not drawn)
inhibitor, KinaseProfiler panel	1 µM	–	inhibition	-3%	CN1CC[C@@H](COc2cnc(C#N)cc2-c2ccn3nc(NC(=O)C4CC4)cc3c2)C1
binding, competition with immobilised ligand	3 µM	–	remaining binding	83%	COc1c(Cl)cccc1Nc1c(-c2ccncc2C#C[C@@]2(C)CCCN2C(=O)/C=C/CN(C)C)[nH]c2c1C(=O)NCC2
binding, competition with immobilised ligand	0.2 µM	–	inhibition	44.9%	COc1ccc(O)cc1-c1c[nH]c2ncc(-c3cncc(C(=O)N(C)C)c3)cc12
binding, competition with immobilised ligand	1 µM	–	remaining binding	81%	CNC(=O)C1CCN(c2cc(C)c(F)cc2NC(=O)c2ccc(-c3cc(O)ccc3C)c(C)c2)CC1
enzyme activity, inhibitor	10 µM	–	inhibition	-2%	Cc1cccc(O[C@H]2CCC[C@@H](C(C)CNCc3ccncc3)C2)c1 (relative stereo)
kinase activity	0.1 µM	–	inhibition	51%	C=CC(=O)Nc1cccc(-c2cnc3[nH]cc(C(=O)NC(C)(C)C)c3n2)c1
binding	0.1 µM	–	remaining binding	97%	Cc1cnc2nc1Nc1cccc(c1)COC/C=C/COCc1cc(ccc1OCCN1CCOCC1)N2
KinomeScan	0.1 µM	reference: untreated	remaining binding	62%	CNC1C[S+]2CC[S+]3CC[S+](C1)[Ru-4]321([N]=C=S)[n]2c3ccc(OC)cc3c3c4c(c5cc(F)c[n+]1c5c32)C(=O)NC4=O (stereo not drawn)
kinase activity	0.1 µM, together with: ATP at Km	–	inhibition	7.3%	CCn1cc(C(=O)O)c(=O)c2c(N)c(F)c(NC3CCCCC3)cc21
cell-free assay, competition with immobilised ligand	1 µM	–	remaining binding	90%	C=CC(=O)N1CCCC(n2c(=O)c3ncccc3n(Cc3ccc(Oc4ccccc4)cc3)c2=O)C1 (stereo not drawn)
binding, competition with immobilised ligand	1 µM	–	remaining binding	100%	Nc1ncc2c(n1)-c1c([nH]c3ccc(C4=CCOCC4)cc13)CCC2
enzyme activity, inhibitor	10 µM	–	inhibition	-2%	NC(=O)C[C@H]1CCc2sc3ncnc(O[C@H]4CC[C@H](N5CCOCC5)CC4)c3c21
enzyme activity, inhibitor	1 µM	–	activity vs control	115%	CNC(=O)C[C@H](Cc1ccc(C#N)cc1)NC(=O)c1cc(-c2ccc(CN[C@H](C)c3ccc(C)cc3)o2)ccc1Cl

Repeated from above:
test	conditions	how to read	endpoint	value	SMILES
inhibitor	1 µM	reference: control	remaining activity	98%	COc1cc(Nc2nc(C)cc(-c3cnn4nc(OC)ccc34)n2)cc(C(F)(F)F)c1
